Experimental data pooled from the literature.
Compare with care: the assays were run in different laboratories.
Target: Cannabinoid receptor 1 (CNR1, Homo sapiens, UniProt P21554)
Chain of UniProt P21554 (whole entry, looked up): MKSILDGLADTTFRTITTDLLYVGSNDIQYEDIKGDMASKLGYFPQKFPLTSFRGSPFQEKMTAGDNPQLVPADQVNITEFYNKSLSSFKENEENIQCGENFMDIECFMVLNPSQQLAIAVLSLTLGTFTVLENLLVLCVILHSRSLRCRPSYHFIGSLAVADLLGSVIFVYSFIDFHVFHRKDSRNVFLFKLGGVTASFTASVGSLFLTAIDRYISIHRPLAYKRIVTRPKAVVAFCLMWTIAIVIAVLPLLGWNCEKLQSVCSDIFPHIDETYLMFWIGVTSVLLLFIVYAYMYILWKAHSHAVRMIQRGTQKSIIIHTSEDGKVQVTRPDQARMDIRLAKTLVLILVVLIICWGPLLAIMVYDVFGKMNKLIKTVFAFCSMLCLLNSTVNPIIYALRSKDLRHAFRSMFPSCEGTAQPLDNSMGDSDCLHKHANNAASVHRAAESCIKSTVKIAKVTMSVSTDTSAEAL

COc1cc(Cl)c(C(=O)N[C@@H](CN[C@H]2CC[C@@H](N)CC2)Cc2ccc(C#N)cc2)cc1-c1ccc(CN[C@H](C)c2ccc(C)cc2)o1 — inhibition (agonist response, antagonist; human cells; 10 µM, CB1 antagonist): 16%
C/C(=C/CC[C@]1(C)[C@H]2CC3[C@H](C2)[C@]31C)CO — displacement (radioligand binding; 10 µM): < 16%
O=S(=O)(NC1CCN(c2ncnc3c2nc(-c2ccccc2Cl)n3-c2ccc(C(F)(F)F)nc2)CC1)c1ccc(F)c(F)c1 — selectivity ratio (binding, [3H]CP55940 displacement; relative to: Ki CB2 over Ki CB1): > 600
O=c1c(NCc2ccccc2)c(Nc2ccc(Cl)cc2)c1=O — activity (allosteric modulator, FLIPR calcium; up to 10 µM, with: CP55,940): inactive
O=S(=O)(NC1CCN(c2ncnc3c2nc(-c2ccccc2Cl)n3-c2ccc(F)cc2)CC1)c1ccccc1F — selectivity ratio (binding, [3H]CP55940 displacement; relative to: Ki CB2 over Ki CB1): > 3000
CCCC[C@H](NC(=O)[C@H](C)c1c(C)[nH]c2ccc(O)cc12)c1ncc(-c2cc3ccccc3nc2OC)[nH]1 — Hill coefficient: 5.3
O=S(=O)(NC1CCN(c2ncnc3c2nc(-c2ccccc2Cl)n3-c2ccc(Cl)cc2)CC1)c1ccc(F)cc1F — selectivity ratio (binding, [3H]CP55940 displacement; relative to: Ki CB2 over Ki CB1): > 5000
CC[C@]12CCCN3CCc4c([nH]c5ccccc45)[C@]31N(Cc1cn(Cc3ccccc3)nn1)C(=O)C2 — inhibition (beta-arrestin recruitment, antagonist, PathHunter chemiluminescence; 20 µM, with: agonist at EC80): 48%
C[C@H](NC(=O)C(C)(C)Oc1ccc(C(F)(F)F)cn1)[C@@H](Cc1ccc(Cl)cc1)c1cccc(C#N)c1 — response (cAMP, antagonist, cell-based GPCR; 10 µM; relative to: control): > 75%

Repeated from above:
C[C@H](NC(=O)C(C)(C)Oc1ccc(C(F)(F)F)cn1)[C@@H](Cc1ccc(Cl)cc1)c1cccc(C#N)c1 — response (cAMP, antagonist, cell-based GPCR; 10 µM; relative to: control): > 75%
